Measurements pooled from the literature.
Parts stem from different laboratories: compare values within a part only.
Chain of UniProt P42680 (whole entry, looked up): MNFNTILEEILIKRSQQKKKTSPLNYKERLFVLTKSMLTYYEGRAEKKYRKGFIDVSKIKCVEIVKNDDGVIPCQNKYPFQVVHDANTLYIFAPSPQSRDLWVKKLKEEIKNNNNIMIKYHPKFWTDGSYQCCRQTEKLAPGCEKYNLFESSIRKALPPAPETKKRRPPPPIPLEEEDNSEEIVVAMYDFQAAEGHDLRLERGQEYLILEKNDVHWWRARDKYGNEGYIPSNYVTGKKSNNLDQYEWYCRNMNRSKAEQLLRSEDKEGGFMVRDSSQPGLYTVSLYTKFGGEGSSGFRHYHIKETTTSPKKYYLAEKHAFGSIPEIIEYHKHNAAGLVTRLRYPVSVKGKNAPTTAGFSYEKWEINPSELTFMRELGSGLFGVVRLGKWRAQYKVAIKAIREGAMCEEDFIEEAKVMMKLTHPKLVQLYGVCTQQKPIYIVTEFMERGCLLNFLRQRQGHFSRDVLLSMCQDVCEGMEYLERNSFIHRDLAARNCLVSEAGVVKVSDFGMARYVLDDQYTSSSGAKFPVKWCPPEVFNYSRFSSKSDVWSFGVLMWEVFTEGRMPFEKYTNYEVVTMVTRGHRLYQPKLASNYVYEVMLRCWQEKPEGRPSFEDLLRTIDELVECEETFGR
Chain of UniProt P08069 (whole entry, looked up): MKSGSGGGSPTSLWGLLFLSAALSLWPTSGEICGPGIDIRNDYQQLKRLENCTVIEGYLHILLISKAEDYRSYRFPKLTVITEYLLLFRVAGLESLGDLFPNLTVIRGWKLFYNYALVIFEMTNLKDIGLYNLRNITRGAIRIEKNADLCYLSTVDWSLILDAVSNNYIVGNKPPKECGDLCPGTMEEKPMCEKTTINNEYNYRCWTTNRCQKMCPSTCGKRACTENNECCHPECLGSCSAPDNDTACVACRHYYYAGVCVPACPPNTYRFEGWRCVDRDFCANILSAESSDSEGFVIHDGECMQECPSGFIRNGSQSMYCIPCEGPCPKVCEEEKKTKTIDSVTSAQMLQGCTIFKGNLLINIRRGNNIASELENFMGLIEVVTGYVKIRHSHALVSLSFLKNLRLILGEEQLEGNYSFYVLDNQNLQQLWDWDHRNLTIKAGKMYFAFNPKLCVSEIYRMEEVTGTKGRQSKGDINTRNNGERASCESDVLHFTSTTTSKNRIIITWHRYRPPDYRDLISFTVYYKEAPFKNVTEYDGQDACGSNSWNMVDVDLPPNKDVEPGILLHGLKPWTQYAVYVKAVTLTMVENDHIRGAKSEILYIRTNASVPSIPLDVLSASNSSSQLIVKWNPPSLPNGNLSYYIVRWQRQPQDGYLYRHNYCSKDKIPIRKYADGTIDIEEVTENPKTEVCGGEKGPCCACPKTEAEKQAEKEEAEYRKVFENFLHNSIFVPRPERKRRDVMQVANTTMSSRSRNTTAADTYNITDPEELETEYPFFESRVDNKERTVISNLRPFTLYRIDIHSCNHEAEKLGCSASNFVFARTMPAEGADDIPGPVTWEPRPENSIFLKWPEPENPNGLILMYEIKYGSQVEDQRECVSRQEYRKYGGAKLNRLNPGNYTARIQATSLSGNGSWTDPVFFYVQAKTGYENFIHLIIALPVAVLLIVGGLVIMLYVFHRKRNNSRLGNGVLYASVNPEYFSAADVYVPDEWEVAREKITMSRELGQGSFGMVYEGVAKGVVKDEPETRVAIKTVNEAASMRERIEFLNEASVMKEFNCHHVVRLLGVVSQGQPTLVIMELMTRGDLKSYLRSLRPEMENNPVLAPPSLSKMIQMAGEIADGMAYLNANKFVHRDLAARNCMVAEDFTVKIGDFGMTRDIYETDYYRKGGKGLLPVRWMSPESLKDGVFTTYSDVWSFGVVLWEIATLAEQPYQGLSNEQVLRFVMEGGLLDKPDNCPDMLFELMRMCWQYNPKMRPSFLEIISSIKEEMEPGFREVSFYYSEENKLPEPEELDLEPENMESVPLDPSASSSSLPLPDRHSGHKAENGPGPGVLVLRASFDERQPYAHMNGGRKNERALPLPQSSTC
Chain of UniProt Q06418 (whole entry, looked up): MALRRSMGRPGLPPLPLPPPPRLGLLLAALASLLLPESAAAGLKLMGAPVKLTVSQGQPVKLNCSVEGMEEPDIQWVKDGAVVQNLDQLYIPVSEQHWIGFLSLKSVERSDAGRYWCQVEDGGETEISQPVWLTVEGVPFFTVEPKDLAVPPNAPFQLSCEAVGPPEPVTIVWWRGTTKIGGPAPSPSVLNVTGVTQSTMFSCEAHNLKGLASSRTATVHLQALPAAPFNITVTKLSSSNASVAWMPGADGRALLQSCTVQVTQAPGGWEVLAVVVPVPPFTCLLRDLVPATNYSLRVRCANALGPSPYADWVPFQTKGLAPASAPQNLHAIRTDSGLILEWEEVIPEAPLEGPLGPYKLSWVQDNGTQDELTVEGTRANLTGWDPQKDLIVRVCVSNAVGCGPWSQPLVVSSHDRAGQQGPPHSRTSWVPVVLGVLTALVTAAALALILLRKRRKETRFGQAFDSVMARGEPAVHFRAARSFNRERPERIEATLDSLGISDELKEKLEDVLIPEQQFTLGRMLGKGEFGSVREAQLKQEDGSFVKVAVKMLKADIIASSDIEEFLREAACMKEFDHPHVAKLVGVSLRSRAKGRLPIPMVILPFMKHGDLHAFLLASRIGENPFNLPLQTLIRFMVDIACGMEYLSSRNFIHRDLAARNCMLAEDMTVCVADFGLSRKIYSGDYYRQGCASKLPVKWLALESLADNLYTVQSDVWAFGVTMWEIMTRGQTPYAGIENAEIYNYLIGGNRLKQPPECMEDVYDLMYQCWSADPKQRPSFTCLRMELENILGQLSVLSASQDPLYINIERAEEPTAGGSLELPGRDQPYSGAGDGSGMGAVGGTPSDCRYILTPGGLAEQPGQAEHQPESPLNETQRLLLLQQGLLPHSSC
Chain of UniProt Q9NYL2 (whole entry, looked up): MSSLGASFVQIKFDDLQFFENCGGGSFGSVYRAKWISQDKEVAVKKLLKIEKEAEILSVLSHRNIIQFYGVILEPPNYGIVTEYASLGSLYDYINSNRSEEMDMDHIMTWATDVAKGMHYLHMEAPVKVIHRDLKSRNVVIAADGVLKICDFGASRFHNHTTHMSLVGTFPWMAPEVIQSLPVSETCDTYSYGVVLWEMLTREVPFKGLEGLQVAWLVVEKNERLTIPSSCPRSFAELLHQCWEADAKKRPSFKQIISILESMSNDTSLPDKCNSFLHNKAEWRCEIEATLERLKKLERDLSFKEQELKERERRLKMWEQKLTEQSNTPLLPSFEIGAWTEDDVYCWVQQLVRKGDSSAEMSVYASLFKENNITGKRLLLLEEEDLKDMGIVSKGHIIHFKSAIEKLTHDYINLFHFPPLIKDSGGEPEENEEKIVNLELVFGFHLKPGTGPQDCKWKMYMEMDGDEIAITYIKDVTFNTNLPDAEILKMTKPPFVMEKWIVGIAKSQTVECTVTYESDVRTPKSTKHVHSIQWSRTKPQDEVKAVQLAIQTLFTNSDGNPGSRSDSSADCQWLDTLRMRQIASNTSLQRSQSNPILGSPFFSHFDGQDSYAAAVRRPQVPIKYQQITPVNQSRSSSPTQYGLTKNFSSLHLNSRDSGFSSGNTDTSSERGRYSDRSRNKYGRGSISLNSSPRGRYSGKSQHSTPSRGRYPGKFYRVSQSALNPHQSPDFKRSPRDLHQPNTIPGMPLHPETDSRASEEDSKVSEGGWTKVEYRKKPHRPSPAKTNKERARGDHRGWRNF
Chain of UniProt Q9NQU5 (whole entry, looked up): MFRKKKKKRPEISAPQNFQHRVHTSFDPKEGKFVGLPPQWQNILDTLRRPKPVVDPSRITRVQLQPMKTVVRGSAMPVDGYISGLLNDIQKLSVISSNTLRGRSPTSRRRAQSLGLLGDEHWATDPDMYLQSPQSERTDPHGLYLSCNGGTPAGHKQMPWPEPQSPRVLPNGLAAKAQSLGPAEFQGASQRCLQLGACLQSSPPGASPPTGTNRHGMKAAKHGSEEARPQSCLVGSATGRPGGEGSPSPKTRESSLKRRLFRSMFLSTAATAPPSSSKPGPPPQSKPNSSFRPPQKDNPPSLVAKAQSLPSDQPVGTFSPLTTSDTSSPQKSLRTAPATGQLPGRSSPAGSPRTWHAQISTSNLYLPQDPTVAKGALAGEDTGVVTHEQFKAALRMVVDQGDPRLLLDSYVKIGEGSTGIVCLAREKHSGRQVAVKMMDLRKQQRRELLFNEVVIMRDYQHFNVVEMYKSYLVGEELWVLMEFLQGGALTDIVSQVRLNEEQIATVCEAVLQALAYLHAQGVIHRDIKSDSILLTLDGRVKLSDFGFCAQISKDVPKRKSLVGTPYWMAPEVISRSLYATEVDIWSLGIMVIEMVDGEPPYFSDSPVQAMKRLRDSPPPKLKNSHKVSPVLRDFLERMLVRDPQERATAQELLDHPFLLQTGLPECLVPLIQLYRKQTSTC
Chain of UniProt Q96SB4 (whole entry, looked up): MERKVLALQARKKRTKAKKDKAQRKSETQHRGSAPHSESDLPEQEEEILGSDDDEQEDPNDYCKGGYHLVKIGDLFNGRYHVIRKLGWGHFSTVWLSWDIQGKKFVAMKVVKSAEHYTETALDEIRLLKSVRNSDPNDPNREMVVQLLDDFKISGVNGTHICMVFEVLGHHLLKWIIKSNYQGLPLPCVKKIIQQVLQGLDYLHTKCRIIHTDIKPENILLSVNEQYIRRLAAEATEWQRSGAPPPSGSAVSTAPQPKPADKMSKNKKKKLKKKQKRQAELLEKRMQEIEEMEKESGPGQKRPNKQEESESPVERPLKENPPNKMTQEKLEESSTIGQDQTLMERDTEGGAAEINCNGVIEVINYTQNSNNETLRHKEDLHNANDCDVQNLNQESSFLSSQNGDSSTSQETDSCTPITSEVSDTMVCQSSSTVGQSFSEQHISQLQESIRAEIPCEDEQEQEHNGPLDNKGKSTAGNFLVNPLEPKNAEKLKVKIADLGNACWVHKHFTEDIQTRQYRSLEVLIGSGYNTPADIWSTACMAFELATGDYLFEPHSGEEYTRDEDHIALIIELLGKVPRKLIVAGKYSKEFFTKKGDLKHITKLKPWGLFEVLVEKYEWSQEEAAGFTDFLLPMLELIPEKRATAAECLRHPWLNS

Set 1 — technique: competition with immobilised ligand; tested at: 1 µM
SMILES: O=C(Nc1cnc(Oc2ccc(F)cc2)nc1)N1CCc2ncccc2[C@@H]1c1ccc(F)cc1
The remaining binding was 92% (MAPK3 (Homo sapiens, UniProt P27361); cell-free assay).
BMPR1A (Homo sapiens, UniProt P36894); binding — remaining binding: 100%.
For MAP4K3 (Homo sapiens, UniProt Q8IVH8); cell-free assay: remaining binding read 87%.
It gave 92% for remaining binding (BUB1 (Homo sapiens, UniProt O43683); cell-free assay).
For CSNK1G1 (Homo sapiens, UniProt Q9HCP0); cell-free assay: remaining binding read 99%.
PIK3CB (Homo sapiens, UniProt P42338); cell-free assay — remaining binding: 84%.
PRKACA (Homo sapiens, UniProt P17612); cell-free assay — remaining binding: 82%.
It gave 84% for remaining binding (CHEK1 (Homo sapiens, UniProt O14757); cell-free assay).
The remaining binding was 84% (SYK (Homo sapiens, UniProt P43405); cell-free assay).
It gave 80% for remaining binding (PKMYT1 (Homo sapiens, UniProt Q99640); cell-free assay).
For MAP3K5 (Homo sapiens, UniProt Q99683); cell-free assay: remaining binding read 84%.
It gave 63% for remaining binding (PIK3CA (Homo sapiens, UniProt P42336, E545K); cell-free assay).
LRRK2 (Homo sapiens, UniProt Q5S007, G2019S); cell-free assay — remaining binding: 100%.
MAP3K7 (Homo sapiens, UniProt O43318); cell-free assay — remaining binding: 90%.
For MERTK (Homo sapiens, UniProt Q12866); cell-free assay: remaining binding read 100%.
For LATS1 (Homo sapiens, UniProt O95835); cell-free assay: remaining binding read 100%.
RET (Homo sapiens, UniProt P07949, V804M); cell-free assay — remaining binding: 94%.
It gave 100% for remaining binding (TYRO3 (Homo sapiens, UniProt Q06418); cell-free assay).
The remaining binding was 90% (GRK2 (Homo sapiens, UniProt P25098); cell-free assay).
For CDK4 (Homo sapiens, UniProt P11802); cell-free assay: remaining binding read 100%.
For FLT3 (Homo sapiens, UniProt P36888, R834Q); cell-free assay: remaining binding read 99%.
The remaining binding was 96% (CDC42BPA (Homo sapiens, UniProt Q5VT25); cell-free assay).
For IGF1R (Homo sapiens, UniProt P08069); cell-free assay: remaining binding read 100%.
The remaining binding was 100% (PTK2B (Homo sapiens, UniProt Q14289); cell-free assay).
TEC (Homo sapiens, UniProt P42680); binding — remaining binding: 89%.

Set 2 — SMILES: NC(N)=NC(=O)c1nc(Cl)c(N2CCCCCC2)nc1N; read-out: β-arrestin recruitment; mode: agonist; technique: PRESTO-Tango; tested at: 10 µM; reference: untreated
The “fold over basal” was 1.21 fold (GRM1 (Homo sapiens, UniProt Q13255)).
DRD1 (Homo sapiens, UniProt P21728) — “fold over basal”: 0.72.
PTAFR (Homo sapiens, UniProt P25105) — “fold over basal”: 1.1.
For BRS3 (Homo sapiens, UniProt P32247): “fold over basal” read 3.21.
For Adhesion G protein-coupled receptor F5 (ADGRF5, Homo sapiens, UniProt Q8IZF2): “fold over basal” read 1.15.
The “fold over basal” was 0.47 fold (GIPR (Homo sapiens, UniProt P48546)).
The “fold over basal” was 1.26 (G-protein coupled receptor 62 (GPR62, Homo sapiens, UniProt Q9BZJ7)).
For CCKAR (Homo sapiens, UniProt P32238): “fold over basal” read 1.01.
It gave 1.11 for “fold over basal” (Apelin receptor (APLNR, Homo sapiens, UniProt P35414)).
The “fold over basal” was 1.01 (Opsin-3 (OPN3, Homo sapiens, UniProt Q9H1Y3)).
12-(S)-hydroxy-5,8,10,14-eicosatetraenoic acid receptor (GPR31, Homo sapiens, UniProt O00270) — “fold over basal”: 0.73.
The “fold over basal” was 1.13 fold (FPR2 (Homo sapiens, UniProt P25090)).

Set 3 — species: mouse; sample: microsomes or S9; tested at: 2 µM; time: 0.5 h
The remaining compound of c1ccc2c(Sc3nccc4ccccc34)nccc2c1 is reported as 1.2%.
CC(C)=CCn1c(CO)nc2c1c(=O)n(C)c(=O)n2C has a remaining compound of 65.7%.
The remaining compound of O=C(CN1C(=O)c2ccccc2N2C(=O)c3ccccc3C12)Nc1ccncc1 (centres unmarked) is reported as 84%.
The remaining compound of O=C(Nc1ccc(-c2nc3ccccc3[nH]2)cc1)c1ccnc(-n2cnnc2)c1 is reported as 99.1%.
CC(C)c1nc(NC(=O)c2cc(-c3ccco3)n[nH]2)n[nH]1 has a remaining compound of 48.6%.
For COc1cc(OC)c(NC(=O)N2Cc3c(sc4c3CCCC4)-n3cccc3C2C)cc1Cl (centres unmarked), the remaining compound was under 1%.
With Cc1cc(C)cc(-n2ncc3c(=O)n(CC(=O)c4cc(C)[nH]c4C)cnc32)c1 the remaining compound was 98.2%.
O=C(Cn1nc2n(CCc3ccccc3)c(=O)c3ccccc3n2c1=O)Nc1ccc2c(c1)OCO2 has a remaining compound of 28.3%.
The remaining compound of Cc1nc2c(c3c(n2CC2CCO2)CCCC3)c(-c2ccc(Cl)cc2)c1[C@H](OC(C)(C)C)C(=O)O (some centres unmarked) is reported as 29.5%.
For CCCNc1c(C(=O)OC)nc2ccc(Cl)cn12, the remaining compound was 0.856%.
For c1nc(N2CCCC2)sc1CN1CC[C@H]2OCc3cnnn3[C@H]2C1, the remaining compound was 80.4%.
O=C(Nc1nn[nH]n1)c1cc(-c2cccs2)[nH]n1 has a remaining compound of 92.2%.

Set 4 — SMILES: O=C(O)/C=C/c1cc(Br)c(Br)c(Br)c1Br; read-out: enzyme activity; mode: inhibitor; tested at: 0.5 µM; reference: control
The remaining activity was 59.7% (SGK2 (Homo sapiens, UniProt Q9HBY8)).
The remaining activity was 105% (PAK1 (Homo sapiens, UniProt Q13153)).
It gave 85% for remaining activity (CLK2 (Homo sapiens, UniProt P49760)).
For IGF1R (Homo sapiens, UniProt P08069): remaining activity read 96%.
It gave 89.4% for remaining activity (Cyclin-dependent kinase 2, with cyclin E (CDK2, Homo sapiens, UniProt P24941)).
It gave 110% for remaining activity (PAK6 (Homo sapiens, UniProt Q9NQU5)).
CSNK1E (Homo sapiens, UniProt P49674) — remaining activity: 83.6%.
It gave 87.5% for remaining activity (FLT1 (Homo sapiens, UniProt P17948)).
It gave 105% for remaining activity (CAMKK1 (Homo sapiens, UniProt Q8N5S9)).
For EPHA2 (Homo sapiens, UniProt P29317): remaining activity read 97.9%.
It gave 53.6% for remaining activity (MUSK (Homo sapiens, UniProt O15146)).
The remaining activity was 59.1% (CSNK1D (Homo sapiens, UniProt P48730)).
CLK1 (Homo sapiens, UniProt P49759) — remaining activity: 98.5%.
The remaining activity was 79.3% (SRPK1 (Homo sapiens, UniProt Q96SB4)).
It gave 107% for remaining activity (TEC (Homo sapiens, UniProt P42680)).
The remaining activity was 107% (SIK2 (Homo sapiens, UniProt Q9H0K1)).
For MAP3K20 (Homo sapiens, UniProt Q9NYL2): remaining activity read 89.4%.
The remaining activity was 41.2% (RPS6KA3 (Homo sapiens, UniProt P51812)).
The remaining activity was 93.3% (TYRO3 (Homo sapiens, UniProt Q06418)).
The remaining activity was 89.6% (PRKCQ (Homo sapiens, UniProt Q04759)).
The remaining activity was 105% (CAMK1 (Homo sapiens, UniProt Q14012)).
JAK1 (Homo sapiens, UniProt P23458) — remaining activity: 98.8%.

Excerpt of the above (set 3):
CC(C)=CCn1c(CO)nc2c1c(=O)n(C)c(=O)n2C has a remaining compound of 65.7%.
The remaining compound of O=C(CN1C(=O)c2ccccc2N2C(=O)c3ccccc3C12)Nc1ccncc1 (centres unmarked) is reported as 84%.
The remaining compound of O=C(Nc1ccc(-c2nc3ccccc3[nH]2)cc1)c1ccnc(-n2cnnc2)c1 is reported as 99.1%.
CC(C)c1nc(NC(=O)c2cc(-c3ccco3)n[nH]2)n[nH]1 has a remaining compound of 48.6%.
For COc1cc(OC)c(NC(=O)N2Cc3c(sc4c3CCCC4)-n3cccc3C2C)cc1Cl (centres unmarked), the remaining compound was under 1%.
With Cc1cc(C)cc(-n2ncc3c(=O)n(CC(=O)c4cc(C)[nH]c4C)cnc32)c1 the remaining compound was 98.2%.
O=C(Cn1nc2n(CCc3ccccc3)c(=O)c3ccccc3n2c1=O)Nc1ccc2c(c1)OCO2 has a remaining compound of 28.3%.
The remaining compound of Cc1nc2c(c3c(n2CC2CCO2)CCCC3)c(-c2ccc(Cl)cc2)c1[C@H](OC(C)(C)C)C(=O)O (some centres unmarked) is reported as 29.5%.
For CCCNc1c(C(=O)OC)nc2ccc(Cl)cn12, the remaining compound was 0.856%.
For c1nc(N2CCCC2)sc1CN1CC[C@H]2OCc3cnnn3[C@H]2C1, the remaining compound was 80.4%.
